Published values of several laboratories.
Compare with care: the assays were run in different laboratories. ± marks the error that the study gave. Converted amounts (≈) assume the structure as drawn.

Compound	cell line	test	system	setting	scale	quantity	result
COc1ccc(S(=O)(=O)N(CC(=O)O)c2c(C)c(C)c(N(CC(=O)O)S(=O)(=O)c3cccnc3)c(C)c2C)cc1	H9c2	MTS	DMEM with 10% FBS	up to 50 µM, 24 h	–	viability	> 80%
CCCCC[C@@H]1OC(=O)[C@@H](C)N(C)C(=O)[C@H](CCCCC)OC(=O)[C@@H](C)N(C)C(=O)[C@H](CCCCC)OC(=O)[C@@H](C)N(C)C(=O)[C@H](CCCCC)OC(=O)[C@@H](C)N(C)C1=O	Caco-2 monolayer	Caco-2 bidirectional permeability	HBSS with <1% DMSO	10 µM, 2 h, pH 7.4, basal-to-apical	–	recovery	86%
O=C(/C=C/c1ccccc1)c1cc2ccccc2oc1=O	Vero	–	–	up to 100 µg/mL	–	cytotoxicity	not toxic
NC(=O)c1ccc(C(=O)NOCc2ccc(Sc3cccc(Cl)c3)c(C(F)(F)F)c2)cc1	SW1990 cells (human)	CCK-8	–	100 µM	–	cytotoxicity	not toxic
C#CC[C@H](NC(=O)CNC(=O)[C@H](CO)NC(=O)[C@@H]1CCCCNC(=O)CCCC(=O)N[C@@H](CCSC)C(=O)N[C@@H](Cc2c[nH]c3ccccc23)C(=O)N2CCC[C@H]2C(=O)N[C@@H](Cc2c[nH]cn2)C(=O)N[C@@H](CCCNC(=N)N)C(=O)N[C@@H](C(C)C)C(=O)N[C@@H]([C@@H](C)O)C(=O)N[C@@H](C)C(=O)N[C@@H](C)C(=O)N1)C(=O)O	HeLa HaloTag-GFP-Mito	cell penetration, chloroalkane penetration	–	24 h	–	CP50	0.81 ± 0.04 µM
CCCCCCCCCCCCCC(=O)Nc1ccccc1SSc1ccccc1NC(=O)CCCCCCCCCCCCC	HaCaT	MTT	–	concentration not given	–	cytotoxicity	not toxic
Clc1c(Cl)c(Cl)c2c(c1Cl)Oc1c(Cl)c(Cl)c(Cl)c(Cl)c1O2	Caco-2 monolayer	GC-HRMS	gut-on-a-chip	0.2 ng/mL, 24 h, 1% DMSO	–	mass balance	100 ± 8%
CC[C@H](C)[C@H](N)C1=N[C@H](C(=O)N[C@@H](Cc2ccccc2)C(=O)N[C@H](CCC(=O)O)C(=O)N[C@H](C(=O)N[C@H]2CCCCNC(=O)[C@H](CC(N)=O)NC(=O)[C@@H](CC(=O)O)NC(=O)[C@H](Cc3c[nH]cn3)NC(=O)[C@@H](Cc3ccccc3)NC(=O)[C@H]([C@@H](C)CC)NC(=O)[C@@H](CCCN)NC2=O)[C@@H](C)CC)CS1	sheep red blood cells	–	–	128 µg/mL, 20 h, 37 °C	baseline: Triton X-100 0.1%	hemolysis	0%
CCCCn1cc(C(=O)O)c(=O)c2cc(F)c(Nc3cccc(Cl)c3)c([N+](=O)[O-])c21	HT-29	cell growth, SRB	–	72 h	–	IC50	25.5 ± 0.54 µg/mL (≈ 58.8 µM)
CC[C@H](C)[C@H](NC(=O)[C@H](CCCCN)NC(=O)[C@H](CCCCN)NC(=O)[C@H](Cc1ccccc1)NC(=O)[C@H](Cc1ccccc1)NC(=O)[C@H](CCCCN)NC(=O)[C@H](CCCCN)NC(=O)[C@H](Cc1ccccc1)NC(=O)[C@H](CCCNC(=N)N)NC(=O)[C@@H](N)CCCCN)C(=O)N[C@@H](CCCCN)C(=O)N[C@@H](CCCCN)C(=O)N[C@@H](CO)C(=O)N[C@H](C(=O)N[C@@H](CCCCN)C(=O)N[C@@H](CCCCN)C(=O)N[C@@H](CCCNC(=N)N)C(=O)N[C@H](C(=O)N[C@@H](CCCCN)C(=O)N[C@@H](CCCCN)C(=O)N[C@@H](CC(C)C)C(=O)N[C@@H](Cc1ccccc1)C(=O)N[C@@H](CCCCN)C(=O)N[C@@H](CCCCN)C(=O)N1CCC[C@H]1C(=O)N[C@@H](CCCNC(=N)N)C(=O)N[C@H](C(=O)N[C@H](C(=O)N1CCC[C@H]1C(=O)N[C@H](C(=O)N[C@@H](CO)C(=O)N[C@H](C(=O)N1CCC[C@H]1C(=O)N[C@@H](Cc1ccccc1)C(=O)O)[C@@H](C)CC)[C@@H](C)CC)[C@@H](C)CC)C(C)C)C(C)C)C(C)C	L02	cytotoxicity, MTT	–	48 h	–	IC50	> 128 µg/mL
Cc1c(Br)cnc2c1NC(=O)c1cccnc1N2C1CC1	pooled primary human hepatocytes	inducer, qPCR, measured: CYP2B6	–	25 µM, 72 h	baseline: DMSO	mRNA fold change	25 fold
C[C@@H]1NC(=O)CN(C(=O)c2ccccn2)CCCC[C@@H](C(N)=O)NC(=O)[C@@H]2CCCN2C(=O)[C@H](CCC(=O)NCCOCCOCCCCCCCl)NC(=O)[C@H](Cc2ccccc2)NC1=O	HaloTag-expressing cells	cell permeability	–	–	–	CP50	67.6 µM
CC(C)[C@H](NC(=O)[C@H](CCCCN)NC(=O)[C@H](CCCNC(=N)N)NC(=O)CNC(=O)[C@H](C)NC(=O)[C@H](CC(N)=O)NC(=O)[C@H](CCCNC(=N)N)NC(=O)[C@@H](NC(=O)[C@H](CCCCN)NC(=O)[C@H](CC(=O)O)NC(=O)[C@@H](NC(=O)[C@@H](NC(=O)[C@H](CCCNC(=N)N)NC(=O)[C@H](CCCNC(=N)N)NC(=O)[C@H](Cc1c[nH]c2ccccc12)NC(=O)[C@H](Cc1c[nH]c2ccccc12)NC(=O)CN)[C@@H](C)O)C(C)C)C(C)C)C(=O)O	sheep red blood cells	–	–	512 µg/mL, 1 h, 37 °C	baseline: Triton X-100	haemolysis	< 2%
CCCCn1cc(C(=O)O)c(=O)c2cc(F)c(Nc3ccccc3Cl)c([N+](=O)[O-])c21	SW480	cell growth, SRB	–	72 h	–	IC50	123 ± 18.4 µg/mL (≈ 284 µM)
CCN(CCCCOc1ccc(CCC(=O)N2CCC(Cc3ccccc3)CC2)cc1OC)Cc1ccccc1	Caco-2 monolayer	–	–	120 min, over tested concentrations	–	Papp(A-B)	7.99 to 8.84 ×10⁻⁶ cm/s
CC(C)C[C@H](NC(=O)[C@H](CCCNC(=N)N)NC(=O)[C@H](Cc1ccccc1)NC(=O)[C@H](Cc1ccccc1)NC(=O)[C@@H](NC(=O)[C@H](CO)NC(=O)[C@H](CO)NC(=O)[C@H](CC(=O)O)NC(=O)[C@H](CO)NC(=O)[C@H](CO)NC(=O)[C@H](CC(=O)O)NC(=O)[C@H](CO)NC(=O)[C@H](CO)NC(=O)[C@H](CC(=O)O)NC(=O)[C@H](CO)NC(=O)[C@H](CO)NC(=O)[C@H](CC(=O)O)NC(=O)[C@H](CO)NC(=O)[C@H](CO)NC(=O)[C@H](CC(=O)O)NC(=O)[C@H](CO)NC(=O)[C@H](CO)NC(=O)[C@H](CC(=O)O)NC(=O)[C@H](CO)NC(=O)[C@H](CO)NC(=O)[C@H](CC(=O)O)NC(=O)[C@H](CO)NC(=O)[C@H](CO)NC(=O)[C@@H](N)CC(=O)O)[C@@H](C)O)C(=O)N[C@@H](Cc1ccccc1)C(=O)N[C@@H](CC(N)=O)C(=O)N[C@@H](CCCNC(=N)N)C(=O)N[C@@H](C)C(=O)N[C@@H](CCCCN)C(=O)N[C@@H](CCCNC(=N)N)C(=O)N[C@@H](Cc1c[nH]cn1)C(=O)N[C@@H](Cc1c[nH]cn1)C(=O)NCC(=O)N[C@@H](Cc1ccc(O)cc1)C(=O)N[C@@H](CCCCN)C(=O)N[C@@H](CCCNC(=N)N)C(=O)N[C@@H](CCCCN)C(=O)N[C@@H](Cc1ccccc1)C(=O)N[C@@H](Cc1c[nH]cn1)C(=O)O	MC3T3-E1	CCK-8	–	up to 2 × MBC, 24 h	baseline: untreated	cell viability	no effect
Clc1cc2oc3cc(Cl)c(Cl)cc3c2cc1Cl	Caco-2 monolayer	GC-HRMS	gut-on-a-chip	0.2 ng/mL, 24 h, 1% DMSO	–	mass balance	82 ± 5%
CCCCn1cc(C(=O)O)c(=O)c2cc(F)c3c(nnn3-c3ccccc3Cl)c21	HT-29	cell growth, SRB	–	72 h	–	IC50	92.1 ± 5.52 µg/mL (≈ 222 µM)
S=c1n(-c2ccccc2)c2c3ccccc3nc3[n+]2[n]1[Ir-3]12([S]3)([c]3cccc4ccc5ccc[n+]1c5c34)[c]1cccc3ccc4ccc[n+]2c4c13	HeLa cells	annexin V/propidium iodide	–	concentration not given, dark	–	mortality	< 3.4%
Clc1cc2oc3cc(Cl)c(Cl)c(Cl)c3c2cc1Cl	Caco-2 monolayer	GC-HRMS	gut-on-a-chip	0.2 ng/mL, 24 h, 1% DMSO	–	mass balance	88 ± 5%
CCCCn1cc(C(=O)O)c(=O)c2cc(F)c(Nc3ccccc3Cl)c(N)c21	SW480	cell growth, SRB	–	72 h	–	IC50	32.1 ± 3.81 µg/mL (≈ 79.5 µM)
C#CC[C@H](NC(=O)CNC(=O)[C@H](CO)NC(=O)[C@@H]1CCCCNC(=O)CCCC(=O)N[C@@H](CCSC)C(=O)N[C@@H](Cc2c[nH]c3ccccc23)C(=O)N2CCC[C@H]2C(=O)N[C@@H](Cc2c[nH]cn2)C(=O)N[C@@H](CCCNC(=N)N)C(=O)N[C@@H](C(C)C)C(=O)N[C@@H]([C@@H](C)O)C(=O)N[C@@H](C)C(=O)N(C)[C@@H](C)C(=O)N1)C(=O)O	HeLa HaloTag-GFP-Mito	cell penetration, chloroalkane penetration	–	4 h	–	CP50	1.26 ± 0.13 µM
Clc1cc2c(cc1Cl)Oc1c(cc(Cl)c(Cl)c1Cl)O2	Caco-2 monolayer	GC-HRMS	gut-on-a-chip	0.2 ng/mL, 24 h, 1% DMSO	–	mass balance	92 ± 6%
CC[C@H](C)[C@H](N)C1=N[C@H](C(=O)N[C@@H](CC(C)C)C(=O)N[C@H](CCC(=O)O)C(=O)N[C@H](C(=O)N[C@H]2CCCCNC(=O)[C@H](CC(N)=O)NC(=O)[C@@H](CC(=O)O)NC(=O)[C@H](Cc3c[nH]cn3)NC(=O)[C@@H](CC(C)C)NC(=O)[C@H]([C@@H](C)CC)NC(=O)[C@@H](CCCN)NC2=O)[C@@H](C)CC)CS1	sheep red blood cells	–	–	128 µg/mL, 20 h, 37 °C	baseline: Triton X-100 0.1%	hemolysis	0%
CC(C)[C@@H]1NC(=O)CNC(=O)[C@H](CC(N)=O)NC(=O)[C@H](CCCNC(=N)N)NC(=O)[C@H](Cc2ccc(O)cc2)NC(=O)[C@H](C(C)C)NC(=O)[C@@H](NC(=O)[C@@H](NC(=O)[C@H](CC(N)=O)NC(=O)[C@H](Cc2c[nH]c3ccccc23)NC(=O)[C@H](C)NC(=O)[C@H](Cc2ccccc2)NC(=O)CNC(=O)[C@H](CCCCN)NC(=O)[C@H](Cc2ccccc2)NC(=O)[C@H](Cc2ccccc2)NC(=O)[C@H](CCCCN)NC(=O)OCC2c3ccccc3-c3ccccc32)C(C)C)CSSC[C@@H](C(=O)N[C@@H](Cc2c[nH]cn2)C(=O)N[C@@H](CCCNC(=N)N)C(=O)N[C@@H](CCCNC(=N)N)C(=O)N[C@@H](C)C(=O)N[C@@H](CC(N)=O)C(N)=O)NC(=O)[C@H](C(C)C)NC(=O)[C@H](CCCNC(=N)N)NC1=O	MAC-T	CCK-8	–	up to 128 µM, 12 h	–	viability	> 90%

For quick reference, copied from above:
Compound	cell line	test	system	setting	scale	quantity	result
CC(C)[C@H](NC(=O)[C@H](CCCCN)NC(=O)[C@H](CCCNC(=N)N)NC(=O)CNC(=O)[C@H](C)NC(=O)[C@H](CC(N)=O)NC(=O)[C@H](CCCNC(=N)N)NC(=O)[C@@H](NC(=O)[C@H](CCCCN)NC(=O)[C@H](CC(=O)O)NC(=O)[C@@H](NC(=O)[C@@H](NC(=O)[C@H](CCCNC(=N)N)NC(=O)[C@H](CCCNC(=N)N)NC(=O)[C@H](Cc1c[nH]c2ccccc12)NC(=O)[C@H](Cc1c[nH]c2ccccc12)NC(=O)CN)[C@@H](C)O)C(C)C)C(C)C)C(=O)O	sheep red blood cells	–	–	512 µg/mL, 1 h, 37 °C	baseline: Triton X-100	haemolysis	< 2%
CCCCn1cc(C(=O)O)c(=O)c2cc(F)c(Nc3ccccc3Cl)c([N+](=O)[O-])c21	SW480	cell growth, SRB	–	72 h	–	IC50	123 ± 18.4 µg/mL (≈ 284 µM)
